Measurements from different studies.
Compare with care: the assays were run in different laboratories. Numbers after ± are the reported error.
NR1H2 ligand-binding domain: Oxysterols receptor LXR-beta, ligand-binding domain (NR1H2, Homo sapiens, UniProt P55055)
Sequence of UniProt P55055 (whole entry, looked up): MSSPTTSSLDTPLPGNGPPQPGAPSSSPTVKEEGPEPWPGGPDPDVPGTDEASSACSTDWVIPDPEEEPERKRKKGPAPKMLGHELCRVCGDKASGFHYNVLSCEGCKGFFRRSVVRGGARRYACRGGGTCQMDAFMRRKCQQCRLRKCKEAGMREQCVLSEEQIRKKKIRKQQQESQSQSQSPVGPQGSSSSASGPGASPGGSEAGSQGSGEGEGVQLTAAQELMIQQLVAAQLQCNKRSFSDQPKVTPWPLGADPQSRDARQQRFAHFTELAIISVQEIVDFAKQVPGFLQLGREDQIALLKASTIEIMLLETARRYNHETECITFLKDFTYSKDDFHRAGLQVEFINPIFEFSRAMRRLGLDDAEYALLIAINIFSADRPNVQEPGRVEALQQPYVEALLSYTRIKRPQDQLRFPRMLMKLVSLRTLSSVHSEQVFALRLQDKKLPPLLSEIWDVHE
FFAR3: Free fatty acid receptor 3 (FFAR3, Homo sapiens, UniProt O14843)
Sequence of UniProt O14843 (whole entry, looked up): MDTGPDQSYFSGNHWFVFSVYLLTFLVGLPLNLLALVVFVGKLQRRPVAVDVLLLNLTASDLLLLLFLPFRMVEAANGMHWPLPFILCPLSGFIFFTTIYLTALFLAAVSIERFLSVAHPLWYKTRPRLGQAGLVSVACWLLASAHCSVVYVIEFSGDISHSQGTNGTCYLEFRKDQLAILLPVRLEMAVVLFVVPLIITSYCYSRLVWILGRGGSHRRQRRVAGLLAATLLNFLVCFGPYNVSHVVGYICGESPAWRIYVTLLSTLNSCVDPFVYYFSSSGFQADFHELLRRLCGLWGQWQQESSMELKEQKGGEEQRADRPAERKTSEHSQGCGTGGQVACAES
CXCR4: C-X-C chemokine receptor type 4 (CXCR4, Homo sapiens, UniProt P61073)
Thyrotropin-releasing hormone receptor: Thyrotropin-releasing hormone receptor (Mus musculus, UniProt P21761)
Sequence of UniProt P21761 (whole entry, looked up): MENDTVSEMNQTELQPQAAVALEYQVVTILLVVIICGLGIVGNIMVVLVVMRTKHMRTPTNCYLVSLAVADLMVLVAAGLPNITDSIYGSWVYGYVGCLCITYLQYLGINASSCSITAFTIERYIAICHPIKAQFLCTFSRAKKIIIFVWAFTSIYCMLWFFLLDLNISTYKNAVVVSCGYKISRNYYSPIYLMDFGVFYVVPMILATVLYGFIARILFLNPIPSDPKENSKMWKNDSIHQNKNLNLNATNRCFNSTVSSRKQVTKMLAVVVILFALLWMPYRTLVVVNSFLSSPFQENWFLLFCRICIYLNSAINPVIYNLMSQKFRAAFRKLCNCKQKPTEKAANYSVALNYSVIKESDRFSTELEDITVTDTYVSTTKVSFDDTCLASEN
Sequence of UniProt O75762 (whole entry, looked up): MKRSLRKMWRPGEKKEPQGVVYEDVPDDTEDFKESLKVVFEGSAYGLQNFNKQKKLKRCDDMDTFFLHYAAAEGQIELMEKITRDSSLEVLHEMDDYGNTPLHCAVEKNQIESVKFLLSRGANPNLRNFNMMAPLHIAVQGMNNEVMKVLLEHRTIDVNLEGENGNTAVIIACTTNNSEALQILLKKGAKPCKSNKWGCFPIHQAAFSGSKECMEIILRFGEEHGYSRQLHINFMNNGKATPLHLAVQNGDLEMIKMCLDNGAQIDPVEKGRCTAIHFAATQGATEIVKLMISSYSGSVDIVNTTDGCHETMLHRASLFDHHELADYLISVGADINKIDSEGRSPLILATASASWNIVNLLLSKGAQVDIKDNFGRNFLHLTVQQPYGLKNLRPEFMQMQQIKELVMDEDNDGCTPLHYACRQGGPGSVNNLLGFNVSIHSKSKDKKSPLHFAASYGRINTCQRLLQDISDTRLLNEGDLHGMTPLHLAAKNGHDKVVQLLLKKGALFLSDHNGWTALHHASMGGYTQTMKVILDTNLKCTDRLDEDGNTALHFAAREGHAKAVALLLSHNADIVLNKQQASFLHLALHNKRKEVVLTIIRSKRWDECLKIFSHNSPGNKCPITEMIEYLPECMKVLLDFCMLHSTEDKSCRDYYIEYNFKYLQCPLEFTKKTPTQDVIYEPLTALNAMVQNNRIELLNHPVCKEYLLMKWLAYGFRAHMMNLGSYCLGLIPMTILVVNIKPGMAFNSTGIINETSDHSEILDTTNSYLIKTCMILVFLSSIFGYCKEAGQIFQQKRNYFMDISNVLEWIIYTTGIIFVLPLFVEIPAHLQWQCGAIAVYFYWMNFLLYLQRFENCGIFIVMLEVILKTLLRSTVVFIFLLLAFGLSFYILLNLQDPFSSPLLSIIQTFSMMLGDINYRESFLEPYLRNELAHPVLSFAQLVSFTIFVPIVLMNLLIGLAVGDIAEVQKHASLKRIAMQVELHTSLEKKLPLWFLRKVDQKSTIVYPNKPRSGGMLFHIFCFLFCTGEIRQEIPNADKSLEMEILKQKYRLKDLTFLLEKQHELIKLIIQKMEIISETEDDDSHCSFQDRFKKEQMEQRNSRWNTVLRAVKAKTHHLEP
Sequence of UniProt P30969 (whole entry, looked up): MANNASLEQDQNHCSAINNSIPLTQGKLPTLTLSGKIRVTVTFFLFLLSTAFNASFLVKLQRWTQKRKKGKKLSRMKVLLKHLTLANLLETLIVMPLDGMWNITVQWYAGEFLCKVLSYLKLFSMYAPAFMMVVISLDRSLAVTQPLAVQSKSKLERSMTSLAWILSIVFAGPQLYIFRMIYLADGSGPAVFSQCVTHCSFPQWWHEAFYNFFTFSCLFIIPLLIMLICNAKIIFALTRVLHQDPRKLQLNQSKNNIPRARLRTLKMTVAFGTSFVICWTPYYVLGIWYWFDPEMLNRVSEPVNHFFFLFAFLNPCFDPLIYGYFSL
Sequence of UniProt P51812 (whole entry, looked up): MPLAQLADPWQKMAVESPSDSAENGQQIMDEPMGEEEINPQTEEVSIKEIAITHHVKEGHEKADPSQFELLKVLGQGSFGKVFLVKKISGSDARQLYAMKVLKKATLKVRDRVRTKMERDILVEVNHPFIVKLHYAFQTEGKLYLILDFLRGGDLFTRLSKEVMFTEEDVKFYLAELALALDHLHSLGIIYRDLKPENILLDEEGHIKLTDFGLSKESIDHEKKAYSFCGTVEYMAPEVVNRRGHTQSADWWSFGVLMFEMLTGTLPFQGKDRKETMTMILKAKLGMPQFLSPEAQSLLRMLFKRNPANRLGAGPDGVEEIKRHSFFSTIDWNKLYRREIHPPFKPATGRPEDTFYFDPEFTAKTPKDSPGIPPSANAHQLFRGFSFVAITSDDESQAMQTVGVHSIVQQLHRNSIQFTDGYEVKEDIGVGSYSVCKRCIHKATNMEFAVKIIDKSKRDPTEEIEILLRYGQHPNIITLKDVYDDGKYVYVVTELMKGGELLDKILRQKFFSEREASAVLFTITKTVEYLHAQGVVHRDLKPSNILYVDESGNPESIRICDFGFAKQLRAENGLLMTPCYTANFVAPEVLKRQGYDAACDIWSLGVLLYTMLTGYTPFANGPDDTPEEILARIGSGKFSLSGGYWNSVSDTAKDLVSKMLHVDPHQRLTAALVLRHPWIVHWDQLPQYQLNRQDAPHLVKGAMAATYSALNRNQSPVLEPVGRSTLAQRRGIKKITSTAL
Sequence of UniProt Q6W5P4 (whole entry, looked up): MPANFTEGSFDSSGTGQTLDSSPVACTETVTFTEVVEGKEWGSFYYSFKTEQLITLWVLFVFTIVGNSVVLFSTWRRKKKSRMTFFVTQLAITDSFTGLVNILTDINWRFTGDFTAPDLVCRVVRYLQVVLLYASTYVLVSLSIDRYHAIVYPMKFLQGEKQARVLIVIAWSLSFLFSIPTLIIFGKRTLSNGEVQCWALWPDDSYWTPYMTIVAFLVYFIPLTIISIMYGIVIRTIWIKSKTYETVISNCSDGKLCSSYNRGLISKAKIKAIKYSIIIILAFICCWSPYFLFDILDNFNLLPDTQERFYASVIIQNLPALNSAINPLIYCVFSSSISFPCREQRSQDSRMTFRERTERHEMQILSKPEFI
Sequence of UniProt Q9WTJ5 (whole entry, looked up): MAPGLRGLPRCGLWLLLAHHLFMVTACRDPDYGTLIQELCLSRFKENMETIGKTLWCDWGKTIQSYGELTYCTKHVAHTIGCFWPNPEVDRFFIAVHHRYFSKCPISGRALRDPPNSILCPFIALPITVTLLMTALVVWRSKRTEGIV
Sequence of UniProt Q61143 (whole entry, unmodified, looked up): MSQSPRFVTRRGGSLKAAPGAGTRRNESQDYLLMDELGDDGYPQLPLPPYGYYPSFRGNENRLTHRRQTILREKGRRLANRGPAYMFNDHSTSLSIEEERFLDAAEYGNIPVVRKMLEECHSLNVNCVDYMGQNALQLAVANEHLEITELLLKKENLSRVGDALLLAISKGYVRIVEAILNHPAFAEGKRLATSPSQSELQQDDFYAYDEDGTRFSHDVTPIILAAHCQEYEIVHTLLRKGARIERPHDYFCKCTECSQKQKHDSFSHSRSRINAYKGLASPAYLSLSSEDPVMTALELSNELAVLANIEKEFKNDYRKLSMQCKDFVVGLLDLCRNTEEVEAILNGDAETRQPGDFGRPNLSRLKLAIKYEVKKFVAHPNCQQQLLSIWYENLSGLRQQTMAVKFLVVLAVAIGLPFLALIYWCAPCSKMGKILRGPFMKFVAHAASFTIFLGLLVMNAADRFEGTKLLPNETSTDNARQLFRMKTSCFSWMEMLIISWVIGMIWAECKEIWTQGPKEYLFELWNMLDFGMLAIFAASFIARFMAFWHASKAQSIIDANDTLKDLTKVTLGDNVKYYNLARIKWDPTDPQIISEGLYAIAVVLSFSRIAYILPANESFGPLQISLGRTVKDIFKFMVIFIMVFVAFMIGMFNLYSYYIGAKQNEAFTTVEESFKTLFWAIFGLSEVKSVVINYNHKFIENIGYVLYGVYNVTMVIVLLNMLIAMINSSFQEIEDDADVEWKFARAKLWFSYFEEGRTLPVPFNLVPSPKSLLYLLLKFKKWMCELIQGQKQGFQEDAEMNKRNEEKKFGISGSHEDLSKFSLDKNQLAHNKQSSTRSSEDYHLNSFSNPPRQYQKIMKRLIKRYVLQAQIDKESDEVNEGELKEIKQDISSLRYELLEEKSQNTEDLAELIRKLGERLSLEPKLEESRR

SMILES | target | assay | test system | setting | measurement | value
CN(C(=O)C1(c2ccccc2)CCCC1)c1ccc(C(O)(C(F)(F)F)C(F)(F)F)cc1 | NR1H2 ligand-binding domain | agonist | – | concentration not given | EC50 | > 10 µM
C/C=C/CC(=O)O | FFAR3 | agonist | – | – | EC50 | 83.2 µM
CC[C@H](C)[C@H](NC(=O)[C@H](CO)NC(=O)[C@H](CCCCN)NC(=O)CNC(=O)[C@H](CCCCN)NC(=O)[C@H](CC(=O)O)NC(=O)[C@H](Cc1c[nH]cn1)NC(=O)[C@H](CC(C)C)NC(=O)[C@H](CC(C)C)NC(=O)[C@H](CCC(N)=O)NC(=O)[C@H](Cc1c[nH]cn1)NC(=O)[C@H](CCC(=O)O)NC(=O)[C@H](CO)NC(=O)[C@@H](NC(=O)[C@H](C)N)C(C)C)C(=O)N[C@@H](CCC(N)=O)C(=O)N[C@@H](CO)C(=O)N[C@@H](CCSC)C(=O)N[C@@H](CCC(=O)O)C(=O)N[C@@H](CCCNC(=N)N)C(=O)N[C@H](C(=O)N[C@@H](CCC(=O)O)C(=O)N[C@@H](Cc1c[nH]c2ccccc12)C(=O)N[C@@H](CC(C)C)C(=O)N[C@@H](CCCNC(=N)N)C(=O)N[C@@H](CCCCN)C(=O)N[C@@H](CCCCN)C(=O)N[C@@H](CC(C)C)C(=O)N[C@@H](CCC(N)=O)C(=O)N[C@@H](CC(=O)O)C(=O)N[C@H](C(=O)N[C@@H](Cc1c[nH]cn1)C(=O)N[C@@H](CC(N)=O)C(=O)N[C@@H](Cc1ccccc1)C(=O)N[C@@H](CCCCNC(=O)c1ccc2c(c1)C1(OC2=O)c2ccc(N(C)C)cc2Oc2cc(N(C)C)ccc21)C(N)=O)C(C)C)C(C)C | PTH1R (Homo sapiens, UniProt Q03431) | cAMP formation, agonist, GloSensor | HEK293 GP2.3 | 15 min | EC50 | 0.00048 ± 0.0002 µM
CCOc1ccccc1-c1nnc2n1N=C(c1ccc(NC3CCCCC3)cc1)CS2 | CXCR4 | β-arrestin recruitment, agonist | – | – | EC50 | 0.77 µM
O=C(O)c1ccc(-c2nc(-c3cccc(C(F)(F)F)c3)cs2)cc1 | RARA (Homo sapiens, UniProt P10276) | – | – | – | EC50 | 0.021 µM
CCn1cnc(C[C@H](NC(=O)c2cnc(C)cn2)C(=O)N2CCC[C@H]2C(N)=O)c1 | Thyrotropin-releasing hormone receptor | calcium signal, agonist, fluorescence | – | – | EC50 | 2.81 µM
CN(C(=O)c1ccc(F)cc1Cl)c1ccc(C(O)(C(F)(F)F)C(F)(F)F)cc1 | NR1H2 ligand-binding domain | agonist | – | concentration not given | EC50 | 4 ± 0.1 µM
[64Cu+2].c1ccc(CNCc2ccc(CN3CCCN4CCNCCCN(CC4)CC3)cc2)nc1 | CXCR4 | – | NOD/SCID mice, U87 xenografts, U87-stb-CXCR4 tumour | 30 min post-injection | tissue uptake | 13.3 ± 9.83 %ID/g
CC(=O)O | FFAR3 | agonist | – | – | EC50 | 1740 µM
CC(C)C[C@H](NC(=O)CNC(=O)[C@H](C)NC(=O)[C@H](CC(C)C)NC(=O)[C@H](CCCNC(=N)N)NC(=O)[C@H](Cc1cnc[nH]1)NC(=O)[C@@H](NC(=O)[C@@H](NC(=O)[C@@H]1CSSC[C@H](NC(=O)[C@H](C)N)C(=O)N[C@@H](CC(=O)O)C(=O)N[C@@H]([C@@H](C)O)C(=O)N[C@@H](C)C(=O)N[C@@H]([C@@H](C)O)C(=O)N1)C(C)C)[C@@H](C)O)C(=O)N[C@@H](CC(C)C)C(=O)N[C@@H](CO)C(=O)N[C@@H](CCCNC(=N)N)C(=O)N[C@@H](CO)C(=O)NCC(=O)NCC(=O)N[C@H](C(=O)N[C@H](C(=O)N[C@@H](CCCCN)C(=O)N[C@@H](CC(N)=O)C(=O)N[C@@H](CC(N)=O)C(=O)N[C@@H](Cc1ccccc1)C(=O)N[C@H](C(=O)N1CCC[C@H]1C(=O)N[C@H](C(=O)N[C@@H](CC(N)=O)C(=O)N[C@H](C(=O)NCC(=O)N[C@@H](CO)C(=O)N[C@@H](CCCCN)C(=O)N[C@@H](C)C(=O)N[C@@H](Cc1ccccc1)C(N)=O)C(C)C)[C@@H](C)O)C(C)C)C(C)C)C(C)C | Calcr/Ramp1 (Mus musculus, UniProt Q60755+Q9WTJ5) | cAMP production, agonist | COS-7, transfected | 15 min, 37 °C, together with: IBMX 1 mM | EC50 | 0.00603 µM
CC(C)C[C@H](NC(=O)[C@@H](Cc1c[nH]c2ccccc12)NC(=O)[C@H](Cc1c[nH]cn1)NC(=O)[C@H](CO)NC(=O)[C@H](Cc1c[nH]c2ccccc12)NC(=O)[C@H](Cc1c[nH]cn1)NC(=O)[C@@H]1CCC(=O)N1)C(=O)N[C@@H](CCCNC(=N)N)C(=O)N1CCC[C@H]1C(=O)NCC(N)=O | Gonadotropin-releasing hormone receptor (Rattus norvegicus, UniProt P30969) | inositol phosphate accumulation, agonist | HEK293 expressing Gonadotropin-releasing hormone receptor | 60 min, 37 °C, together with: 10 mM LiCl | EC50 | 0.0006 ± 0.0002 µM
O=C(O)/C=C/c1cccc(NC(=O)c2cc(-c3cccc(F)c3)ccc2F)c1 | PTGIR (Homo sapiens, UniProt P43119) | calcium signal, agonist, fluorescence | – | – | EC50 | > 10 µM
N#C/C(=C\c1cccc(-c2cn[nH]c2)c1)C(N)=O | RPS6KA3 (Homo sapiens, UniProt P51812) | inhibitor, Western blot | transfected COS-7 | together with: PMA | EC50 | ~20 µM
CC(C)=CCCC(C)CC=O (stereo not drawn) | Trpv3 (Mus musculus, UniProt Q8K424) | ion current, agonist, patch clamp | mouse | – | EC50 | 5290 ± 170 µM
CC[C@H](C)[C@H](NC(=O)CNC(=O)[C@H](CC(=O)O)NC(=O)[C@H](CO)NC(=O)C=Cc1c[nH]cn1)C(=O)N[C@@H](Cc1ccccc1)C(=O)N[C@H](C(=O)N[C@@H](CC(=O)O)C(=O)N[C@@H](CO)C(=O)N[C@@H](Cc1ccc(O)cc1)C(=O)N[C@@H](CO)C(=O)N[C@@H](CCCNC(=N)N)C(=O)N[C@@H](Cc1ccc(O)cc1)C(=O)N[C@@H](CCCNC(=N)N)C(=O)N[C@@H](CCCCN)C(=O)N[C@@H](CCC(N)=O)C(=O)N[C@@H](CCSC)C(=O)N[C@@H](C)C(=O)N[C@H](C(=O)N[C@@H](CCCCN)C(=O)N[C@@H](CCCCN)C(=O)N[C@@H](C)C(=O)N[C@@H](CC(C)C)C(=O)N[C@@H](C)C(=O)N[C@@H](C)C(=O)N[C@H](C(=O)N[C@@H](CC(C)C)C(=O)NCC(=O)N[C@@H](CCCCN)C(=O)N[C@@H](CCCNC(=N)N)C(=O)N[C@@H](Cc1ccc(O)cc1)C(=O)N[C@@H](CCCCN)C(=O)N[C@@H](CCC(N)=O)C(=O)N[C@@H](CCCNC(=N)N)C(=O)N[C@H](C(=O)N[C@@H](CCCCN)C(=O)N[C@@H](CC(N)=O)C(=O)N[C@@H](CCCCN)C(N)=O)C(C)C)C(C)C)C(C)C)[C@@H](C)O | ADCYAP1R1 (Homo sapiens, UniProt P41586) | cAMP, agonist, radiometric | – | – | EC50 | 0.00246 µM
CSCC[C@H](NC(=O)[C@H](CC(C)C)NC(=O)[C@H](Cc1cnc[nH]1)NC(=O)CNC(=O)[C@@H](NC(=O)[C@H](C)NC(=O)[C@H](Cc1c[nH]c2ccccc12)NC(=O)[C@H](CCC(N)=O)NC(=O)[C@H](CC(N)=O)NC(=O)CNC(=O)[C@H](CC(C)C)NC(=O)[C@H](CCCN=C(N)N)NC(=O)[C@H](CCC(N)=O)NC(=O)[C@@H]1CCC(=O)N1)C(C)C)C(N)=O | ERBB3 (Homo sapiens, UniProt P21860) | receptor phosphorylation, inhibitor, Western blot | H2087 | 3 min | EC50 | 0.0514 ± 0.0073 µM
O=C(c1cc2c(s1)CCCCC2)N1CCC(n2c(=O)[nH]c3ccccc32)CC1 | Trpc6 (Mus musculus, UniProt Q61143, K697R) | channel activation, agonist, whole-cell patch clamp | – | – | EC50 | 1.19 ± 0.14 µM
N=C(N)NCCC[C@H](NC(=O)[C@H](Cc1ccccc1)NC(=O)[C@@H](N)CO)C(=O)N[C@@H](CC(N)=O)C(N)=O | NPSR1 (Homo sapiens, UniProt Q6W5P4) | cAMP, agonist, TR-FRET | – | – | EC50 | > 10 µM
C[C@H](NC(=O)[C@H](CC(N)=O)NC(=O)[C@H](Cc1c[nH]c2ccccc12)NC(=O)[C@H](CCCNC(=N)N)NC(=O)[C@@H](Cc1ccccc1)NC(=O)[C@H](Cc1c[nH]cn1)NC(=O)[C@H](CN=[N+]=[N-])NC(=O)[C@@H](N)Cc1ccc(O)cc1)C(=O)N[C@@H](Cc1ccccc1)C(=O)N[C@@H](CN=[N+]=[N-])C(=O)N[C@@H](Cc1ccc(O)cc1)C(N)=O | Melanocortin receptor 5 (Mus musculus, UniProt P41149) | agonist | – | – | EC50 | 0.02 ± 0.002 µM
CCOc1ccccc1-c1nnc2n1N=C(c1ccc(NC3CCCC3)cc1)CS2 | CXCR4 | β-arrestin recruitment, agonist | – | – | EC50 | 1.4 µM
[64Cu+2].c1cnc(CNCc2ccc(CN3CCCN4CCNCCCN(CC4)CC3)cc2)nc1 | CXCR4 | – | NOD/SCID mice, U87 xenografts, U87-stb-CXCR4 tumour | 30 min post-injection | tissue uptake | 26.8 ± 2.98 %ID/g
C=C(C)C(=O)O | FFAR3 | agonist | – | – | EC50 | 269 µM
Cc1cnc(C(=O)N[C@@H](Cc2cn(C)cn2)C(=O)N2CCC[C@H]2C(N)=O)cn1 | Thyrotropin-releasing hormone receptor | calcium signal, agonist, fluorescence | – | – | EC50 | 0.27 µM
CC#CCC(=O)O | FFAR3 | cAMP, agonist, TR-FRET | – | – | EC50 | 145 µM
O=C(NC[C@@H](Cc1ccc(F)cc1)N1CCC(O)(C(F)(F)F)CC1)C1(c2ccc(Cl)cc2)CCCC1 | TRPA1 (Homo sapiens, UniProt O75762) | calcium signal, agonist | – | – | EC50 | 0.0065 µM
NC(=O)[C@@H]1CCCN1C(=O)[C@H](Cc1cn(Cc2ccccc2)cn1)NC(=O)c1nccnc1N | Thyrotropin-releasing hormone receptor | calcium signal, agonist, fluorescence | – | – | EC50 | 0.058 µM
Nc1ncnc2c1ncn2C1OC(COP(=O)(O)OP(=O)(O)OCC2OC(O)C(O)C2O)C(O)C1O (stereo not drawn) | TRPM2 (Nematostella vectensis, UniProt A7T1N0) | channel activation, activator, inside-out patch clamp | Xenopus oocytes | together with: 125 µM Ca2+ and 2.5 µM PIP2 | EC50 | 1.5 ± 0.1 µM

Excerpt of the above:
SMILES | target | assay | test system | setting | measurement | value
Nc1ncnc2c1ncn2C1OC(COP(=O)(O)OP(=O)(O)OCC2OC(O)C(O)C2O)C(O)C1O (stereo not drawn) | TRPM2 (Nematostella vectensis, UniProt A7T1N0) | channel activation, activator, inside-out patch clamp | Xenopus oocytes | together with: 125 µM Ca2+ and 2.5 µM PIP2 | EC50 | 1.5 ± 0.1 µM
O=C(NC[C@@H](Cc1ccc(F)cc1)N1CCC(O)(C(F)(F)F)CC1)C1(c2ccc(Cl)cc2)CCCC1 | TRPA1 (Homo sapiens, UniProt O75762) | calcium signal, agonist | – | – | EC50 | 0.0065 µM
